Published values pooled from the literature.
Compare with care: the assays were run in different laboratories. “And” joins repeats or separate records; there may be more than shown.
Target: Ribosomal protein S6 kinase beta-1 (RPS6KB1, Homo sapiens, UniProt P23443)

SMILES	assay	test system	setting	how to read	quantity	value
COCC12C(=O)NC3C4(C(OC)CC1O)C1CC5(O)C(OC)C(O)C(OC(C)=O)(C1C5OC(=O)c1ccccc1)C3(O)C(OC)C24 (centres unmarked)	kinase activity, inhibitor, ProQinase kinase profiling	–	25 µM	reference: control	remaining activity	107% and 108%
COc1ccc(C(=O)/C=C/c2ccccc2-c2c[nH]c3ccc(C#N)cc23)c(O)c1	enzyme activity, inhibitor	–	20 µM	–	inhibition	28%
COc1cc(Nc2nccc(-c3cnn4nc(OC)ccc34)n2)cc(C(F)(F)F)c1	binding, competition with immobilised ligand	–	1 µM	–	remaining binding	73%
Cc1nc2c(F)cc(-c3nc(Nc4ccc(CNC(=O)CCCCCCC(=O)NO)cc4)ncc3F)cc2n1C(C)C	enzyme activity, inhibitor	–	1 µM	–	inhibition	78%
O=c1c(-c2ccc(Cl)c(CN3CCOCC3)c2)coc2cc(O)ccc12	enzyme activity, inhibitor	–	1 µM	–	remaining activity	102%
Cc1ccc(C)c(-c2ccc3nc(NC(=O)C4CCCCC4)nn3c2)c1	enzyme activity, Dundee kinase panel	–	10 µM	–	remaining activity	105%
CS(=O)(=O)Nc1cccc(-c2csc3cnc(Nc4ccc(N5CCN(CCCCCOc6cccc7c6C(=O)N(C6CCC(=O)NC6=O)C7=O)CC5)cc4)nc23)c1 (centres unmarked)	probe labelling, inhibitor, KiNativ chemoproteomics	MOLT-4	1 µM	–	inhibition	-23.6%
Nc1ncc2c(n1)-c1c([nH]c3ccc(C4=CCOCC4)cc13)CCC2	binding, competition with immobilised ligand	–	1 µM	–	remaining binding	100%
CCn1cc(C(=O)O)c(=O)c2c(N)c(F)c(NC3CCCCC3)cc21	kinase activity	–	0.1 µM, added: ATP at Km	–	inhibition	-8.3%
Cc1cccc(O[C@H]2CCC[C@@H](C(C)CNCc3ccncc3)C2)c1 (relative stereo)	enzyme activity, inhibitor	–	1 µM	–	inhibition	4%
C=CC(=O)N1Cc2nc(-c3cc(-c4cc(Cl)cnc4Cl)c(F)cc3F)n(-c3ccncn3)c2C1	cell-free assay, inhibitor	–	1 µM	–	inhibition	7.9%
NC(=O)[C@@H](O)C[C@H]1CCc2sc3ncnc(O[C@H]4CC[C@H](N5CCOCC5)CC4)c3c21	enzyme activity, inhibitor	–	10 µM	–	inhibition	5%
Cc1[nH]nc2c1N=C(c1ccccc1Cl)c1cnc(N3CCOCC3)cc1N2	enzyme activity, inhibitor	–	0.5 µM	–	inhibition	28.1%
Cc1cccc(-c2ccc3nc(NC(=O)C4CCCO4)nn3c2)c1 (centres unmarked)	enzyme activity, Dundee kinase panel	–	10 µM	–	remaining activity	95%
C=CC(=O)Nc1cccc(-c2cnc3[nH]cc(C(=O)NC(C)(C)C)c3n2)c1	enzyme activity, inhibitor	–	0.1 µM	–	inhibition	2%
Cc1cnc2nc1Nc1cccc(c1)COC/C=C/COCc1cc(ccc1OCCN1CCOCC1)N2	binding, competition with immobilised ligand	–	0.1 µM	–	remaining binding	94%
CN1CCN(Cc2ccc(-c3ccc(CO[C@H]4CCC[C@@H]4NC(=O)c4cc(-c5cnn(C)c5)cnc4N)cc3)cc2)CC1	enzyme activity, inhibitor	–	0.1 µM	–	inhibition	6%
C=CC(=O)N1CCCC(n2c(=O)c3ncccc3n(Cc3ccc(Oc4ccccc4)cc3)c2=O)C1 (centres unmarked)	cell-free assay, competition with immobilised ligand	–	1 µM	–	remaining binding	88%
COc1ccc(O)cc1-c1c[nH]c2ncc(-c3cncc(C(=O)N(C)C)c3)cc12	binding, competition with immobilised ligand	–	0.2 µM	–	inhibition	0.12%
Nc1ncc(-c2cc(-c3cnn(CC(F)(F)F)c3)ncc2F)nc1C(=O)NC1CNCC(F)C1 (centres unmarked)	enzyme activity	–	1 µM	reference: DMSO control	remaining activity	94.6%

For quick reference, copied from above:
SMILES	assay	test system	setting	how to read	quantity	value
Cc1cccc(-c2ccc3nc(NC(=O)C4CCCO4)nn3c2)c1 (centres unmarked)	enzyme activity, Dundee kinase panel	–	10 µM	–	remaining activity	95%
C=CC(=O)Nc1cccc(-c2cnc3[nH]cc(C(=O)NC(C)(C)C)c3n2)c1	enzyme activity, inhibitor	–	0.1 µM	–	inhibition	2%
